Published values pooled from the literature.
Compare with care: the assays were run in different laboratories. ± gives the spread as reported.
Mode: agonist
Tumor necrosis factor receptor superfamily member 9/Nectin-4: Tumor necrosis factor receptor superfamily member 9/Nectin-4 (Homo sapiens, UniProt Q07011+Q96NY8)
UniProt Q96NY8, sequence (whole entry, looked up): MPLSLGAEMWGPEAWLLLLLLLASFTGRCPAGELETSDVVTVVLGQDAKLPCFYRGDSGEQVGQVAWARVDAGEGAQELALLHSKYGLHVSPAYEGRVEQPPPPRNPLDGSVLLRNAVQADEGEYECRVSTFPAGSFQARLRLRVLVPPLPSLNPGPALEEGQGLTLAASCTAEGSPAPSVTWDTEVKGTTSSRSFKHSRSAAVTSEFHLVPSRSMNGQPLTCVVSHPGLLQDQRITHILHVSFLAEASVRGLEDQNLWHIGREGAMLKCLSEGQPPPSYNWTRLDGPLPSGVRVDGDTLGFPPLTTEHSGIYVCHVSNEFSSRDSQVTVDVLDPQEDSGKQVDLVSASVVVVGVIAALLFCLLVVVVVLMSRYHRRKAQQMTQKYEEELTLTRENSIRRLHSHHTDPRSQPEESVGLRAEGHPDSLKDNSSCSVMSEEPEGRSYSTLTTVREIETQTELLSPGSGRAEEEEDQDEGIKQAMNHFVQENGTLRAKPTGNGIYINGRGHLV
UniProt Q07011, sequence (whole entry, looked up): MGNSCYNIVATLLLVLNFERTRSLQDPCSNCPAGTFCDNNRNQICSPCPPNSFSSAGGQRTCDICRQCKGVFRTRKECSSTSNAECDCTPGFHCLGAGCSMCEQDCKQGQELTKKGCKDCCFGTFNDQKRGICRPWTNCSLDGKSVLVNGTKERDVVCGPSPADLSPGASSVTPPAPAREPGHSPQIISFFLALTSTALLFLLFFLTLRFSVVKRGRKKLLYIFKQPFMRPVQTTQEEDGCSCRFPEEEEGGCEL
UniProt Q6DWJ6, sequence (whole entry, looked up): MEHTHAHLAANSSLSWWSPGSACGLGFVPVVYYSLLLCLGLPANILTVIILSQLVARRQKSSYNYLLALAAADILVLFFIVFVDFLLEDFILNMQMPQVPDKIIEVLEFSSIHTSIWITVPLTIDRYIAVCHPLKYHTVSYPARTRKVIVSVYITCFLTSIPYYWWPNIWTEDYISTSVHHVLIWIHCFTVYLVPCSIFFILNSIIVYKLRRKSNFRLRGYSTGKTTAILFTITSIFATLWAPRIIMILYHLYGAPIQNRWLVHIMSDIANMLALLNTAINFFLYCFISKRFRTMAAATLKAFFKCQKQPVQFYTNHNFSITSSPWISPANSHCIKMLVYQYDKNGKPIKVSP
UniProt Q8NHB7, sequence (whole entry, unmodified, looked up): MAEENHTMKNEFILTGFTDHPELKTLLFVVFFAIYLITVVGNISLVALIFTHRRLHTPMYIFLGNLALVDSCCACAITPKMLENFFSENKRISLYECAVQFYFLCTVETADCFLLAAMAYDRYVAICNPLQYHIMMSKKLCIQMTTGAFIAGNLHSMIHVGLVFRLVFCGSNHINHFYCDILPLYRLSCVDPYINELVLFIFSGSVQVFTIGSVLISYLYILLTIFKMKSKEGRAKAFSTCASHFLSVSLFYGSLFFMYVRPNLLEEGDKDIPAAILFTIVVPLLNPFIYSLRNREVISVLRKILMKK
UniProt Q15399, sequence (whole entry, looked up): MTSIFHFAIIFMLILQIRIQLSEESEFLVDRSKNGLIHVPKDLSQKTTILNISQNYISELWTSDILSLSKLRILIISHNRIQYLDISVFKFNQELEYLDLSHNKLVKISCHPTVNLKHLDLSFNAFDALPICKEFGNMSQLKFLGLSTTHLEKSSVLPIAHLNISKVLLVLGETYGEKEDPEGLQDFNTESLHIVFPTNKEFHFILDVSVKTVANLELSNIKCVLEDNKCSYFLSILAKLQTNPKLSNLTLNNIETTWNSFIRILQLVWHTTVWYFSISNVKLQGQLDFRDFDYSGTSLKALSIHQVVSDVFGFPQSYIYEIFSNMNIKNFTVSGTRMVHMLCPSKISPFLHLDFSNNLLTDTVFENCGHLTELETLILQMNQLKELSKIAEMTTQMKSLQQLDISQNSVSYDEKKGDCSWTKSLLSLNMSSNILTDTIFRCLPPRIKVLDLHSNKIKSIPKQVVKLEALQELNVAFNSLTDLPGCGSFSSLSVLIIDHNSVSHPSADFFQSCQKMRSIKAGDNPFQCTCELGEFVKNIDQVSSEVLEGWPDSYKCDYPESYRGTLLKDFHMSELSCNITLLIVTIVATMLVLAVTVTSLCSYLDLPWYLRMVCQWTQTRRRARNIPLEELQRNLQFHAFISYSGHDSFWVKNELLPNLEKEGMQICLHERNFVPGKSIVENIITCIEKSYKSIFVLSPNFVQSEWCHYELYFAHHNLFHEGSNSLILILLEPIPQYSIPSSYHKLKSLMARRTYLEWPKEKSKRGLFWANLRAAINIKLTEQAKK
UniProt O60603, sequence (whole entry, looked up): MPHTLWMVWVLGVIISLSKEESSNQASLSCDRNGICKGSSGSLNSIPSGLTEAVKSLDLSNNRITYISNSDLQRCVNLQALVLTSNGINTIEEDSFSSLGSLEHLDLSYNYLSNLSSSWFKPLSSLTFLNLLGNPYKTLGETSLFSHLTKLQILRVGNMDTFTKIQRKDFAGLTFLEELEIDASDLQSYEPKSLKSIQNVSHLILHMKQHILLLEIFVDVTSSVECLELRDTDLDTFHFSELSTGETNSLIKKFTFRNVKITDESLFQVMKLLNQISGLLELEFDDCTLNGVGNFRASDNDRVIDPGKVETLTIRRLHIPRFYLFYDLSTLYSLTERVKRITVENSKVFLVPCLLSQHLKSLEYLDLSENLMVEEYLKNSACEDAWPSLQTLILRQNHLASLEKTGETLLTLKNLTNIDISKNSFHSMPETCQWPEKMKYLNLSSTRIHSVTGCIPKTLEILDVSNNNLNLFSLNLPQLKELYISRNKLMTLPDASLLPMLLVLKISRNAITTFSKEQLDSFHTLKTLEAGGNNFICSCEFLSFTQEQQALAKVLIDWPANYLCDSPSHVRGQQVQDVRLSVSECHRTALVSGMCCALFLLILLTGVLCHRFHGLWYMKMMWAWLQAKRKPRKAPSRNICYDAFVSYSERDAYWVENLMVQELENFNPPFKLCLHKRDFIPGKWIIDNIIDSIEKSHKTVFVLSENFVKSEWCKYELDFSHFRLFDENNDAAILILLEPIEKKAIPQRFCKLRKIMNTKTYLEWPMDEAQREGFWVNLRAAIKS
UniProt P34995, sequence (whole entry, unmodified, looked up): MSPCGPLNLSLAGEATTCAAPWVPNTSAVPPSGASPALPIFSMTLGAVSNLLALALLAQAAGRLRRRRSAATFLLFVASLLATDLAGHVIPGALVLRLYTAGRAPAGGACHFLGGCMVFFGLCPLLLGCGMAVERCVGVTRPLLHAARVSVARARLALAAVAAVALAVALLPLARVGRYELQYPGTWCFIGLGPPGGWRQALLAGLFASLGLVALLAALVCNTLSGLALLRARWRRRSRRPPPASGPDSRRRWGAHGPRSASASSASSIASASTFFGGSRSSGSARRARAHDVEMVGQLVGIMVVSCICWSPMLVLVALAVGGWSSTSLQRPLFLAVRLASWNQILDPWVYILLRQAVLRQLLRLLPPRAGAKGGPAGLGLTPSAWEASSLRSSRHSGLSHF

SMILES | target | test | test system | conditions | EC50
CCCCC[C@H](O)/C=C/[C@H]1[C@H](O)CC(=O)[C@@H]1C/C=C\CCCC(=O)O | Prostaglandin E2 receptor EP1 subtype (PTGER1, Homo sapiens, UniProt P34995, H88A) | IP1 accumulation | AD293 | EP1 H88A mutant | 0.787 µM
COc1nccnc1C(C)C | uncharacterized protein (Vulpes vulpes, UniProt A0A3Q7SVK8) | cAMP | HEK293 transfected with uncharacterized protein |  | 251 ± 17.4 µM
C[C@H](NC(=O)CNC(=O)c1cccc(Cl)c1)c1ccccc1 | Probable G-protein coupled receptor 139 (GPR139, Homo sapiens, UniProt Q6DWJ6) | calcium response, BRET | HEK293T/17, transfected |  | 0.0962 ± 0.0161 µM
CCCC[C@@H]1NC(=O)[C@H](Cc2ccc(O)cc2)NC(=O)[C@H](C)N(C)C(=O)[C@H](CC(=O)O)NC(=O)[C@H](C)NC(=O)[C@H](Cc2ccccc2)NC(=O)[C@@H]2CSCCC(=O)N3CN(CN(C3)C(=O)CCSC[C@H](NC(C)=O)C(=O)N[C@@H](CC(C)(C)C)C(=O)N3CCC[C@H]3C(=O)N[C@@H](CCC(=O)O)C(=O)N[C@H](CCCCNC(=O)CCc3cn(CCOCCOCCOCCN(CCOCCOCCOCCC(=O)N[C@H]4CSCCC(=O)N5CN6CN(C5)C(=O)CCSC[C@H](NC(=O)[C@@H](CC(=O)O)NC(=O)[C@H](Cc5cccc7ccccc57)NC(=O)[C@@H]5CCCN5C4=O)C(=O)N[C@@H](CCSC)C(=O)N[C@@H](CCCCNC(=N)N)C(=O)N[C@@H](CC(=O)O)C(=O)N[C@@H](Cc4c[nH]c5ccccc45)C(=O)N[C@@H](CO)C(=O)N[C@@H]([C@@H](C)O)C(=O)N4CCC[C@H]4C(=O)N4C[C@H](O)C[C@H]4C(=O)N[C@@H](Cc4c[nH]c5ccccc45)C(=O)N[C@H](C(N)=O)CSCCC6=O)CCOCCOCCOCCn4cc(CCC(=O)NCCCC[C@H]5NC(=O)[C@H](CCC(=O)O)NC(=O)[C@@H]6CCCN6C(=O)[C@H](CC(C)(C)C)NC(=O)[C@@H](NC(C)=O)CSCCC(=O)N6CN7CN(C6)C(=O)CCSC[C@H](NC(=O)[C@H](Cc6ccc(O)cc6)NC(=O)[C@@H]6CCCN6C5=O)C(=O)N[C@@H](Cc5ccccc5)C(=O)N[C@@H](C)C(=O)N[C@@H](CC(=O)O)C(=O)N(C)[C@@H](C)C(=O)N[C@@H](Cc5ccc(O)cc5)C(=O)N[C@@H](CCCC)C(=O)N[C@H](C(N)=O)CSCCC7=O)nn4)nn3)C(=O)N3CCC[C@H]3C(=O)N[C@@H](Cc3ccc(O)cc3)C(=O)N2)C(=O)CCSC[C@@H](C(N)=O)NC1=O | Tumor necrosis factor receptor superfamily member 9/Nectin-4 | reporter gene | HT-1376 coculture with reporter cells |  | 0.00173 µM
Cc1cnc(C)c(C)n1 | OR5K1 (Homo sapiens, UniProt Q8NHB7, A2T/I280V/T15M/V39I/Y193C) | cAMP | HEK293 transfected with OR5K1 |  | 313 ± 70.3 µM
CCCC[C@@H]1NC(=O)[C@H](Cc2ccc(O)cc2)NC(=O)[C@@H]2CCCN2C(=O)[C@H](CC(=O)O)NC(=O)[C@H](C)NC(=O)[C@H](Cc2ccccc2)NC(=O)[C@@H]2CSCCC(=O)N3CN(CN(C3)C(=O)CCSC[C@@H](C(=O)N[C@@H](CNC(=O)CCOCCOCCOCCOCCOCCOCCOCCOCCOCCOCCOCCOCCn3cc(CCC(=O)NCCC(=O)N(C)CC(=O)N(C)CC(=O)N(C)CC(=O)N(C)CC(=O)N(C)CC(=O)N(C)CC(=O)N(C)CC(=O)N(C)CC(=O)N(C)CC(=O)N(C)CC(=O)N[C@H]4CSCCC(=O)N5CN6CN(C5)C(=O)CCSC[C@H](NC(=O)[C@@H](CC(=O)O)NC(=O)[C@H](Cc5cccc7ccccc57)NC(=O)[C@@H]5CCCN5C4=O)C(=O)N[C@@H](CCSC)C(=O)N[C@@H](CCCCNC(=N)N)C(=O)N[C@@H](CC(=O)O)C(=O)N[C@@H](Cc4c[nH]c5ccccc45)C(=O)N[C@@H](CO)C(=O)N[C@@H]([C@@H](C)O)C(=O)N4CCC[C@H]4C(=O)N4C[C@H](O)C[C@H]4C(=O)N[C@@H](Cc4c[nH]c5ccccc45)C(=O)N[C@H](C(N)=O)CSCCC6=O)nn3)C(N)=O)NC1=O)C(=O)CCSC[C@H](NC(C)=O)C(=O)N[C@@H](CC(C)(C)C)C(=O)N1CCC[C@H]1C(=O)N[C@@H](CCC(=O)O)C(=O)N[C@H](C)C(=O)N1CCC[C@H]1C(=O)N[C@@H](Cc1ccc(O)cc1)C(=O)N2 | Tumor necrosis factor receptor superfamily member 9/Nectin-4 | reporter gene | HT-1376 coculture with reporter cells |  | 0.00107 µM
CNc1ccc([N+](=O)[O-])cc1-n1cnc(-c2ccc(OC)cc2)c1 | Toll-like receptor 1/2 (Homo sapiens, UniProt O60603+Q15399) | reporter gene | HEK-Blue hTLR2 | 24 h | > 100 µM
CCCC[C@@H]1NC(=O)[C@H](Cc2ccc(O)cc2)NC(=O)[C@@H]2CCCN2C(=O)[C@H](CC(=O)O)NC(=O)[C@H](C)NC(=O)[C@H](Cc2ccccc2)NC(=O)[C@@H]2CSCCC(=O)N3CN(CN(C3)C(=O)CCSC[C@@H](C(=O)N[C@@H](C)C(N)=O)NC1=O)C(=O)CCSC[C@H](NC(C)=O)C(=O)N[C@@H](CC(C)(C)C)C(=O)N1CCC[C@H]1C(=O)N[C@@H](CCCCNC(=O)CCc1cn(CC(=O)N[C@H]3CSCCC(=O)N4CN5CN(C4)C(=O)CCSC[C@H](NC(=O)[C@@H](CC(=O)O)NC(=O)[C@H](Cc4cccc6ccccc46)NC(=O)[C@@H]4CCCN4C3=O)C(=O)N[C@@H](CCSC)C(=O)N[C@@H](CCCCNC(=N)N)C(=O)N[C@@H](CC(=O)O)C(=O)N[C@@H](Cc3c[nH]c4ccccc34)C(=O)N[C@@H](CO)C(=O)N[C@@H]([C@@H](C)O)C(=O)N3CCC[C@H]3C(=O)N3C[C@H](O)C[C@H]3C(=O)N[C@@H](Cc3c[nH]c4ccccc34)C(=O)N[C@H](C(N)=O)CSCCC5=O)nn1)C(=O)N[C@H](C)C(=O)N1CCC[C@H]1C(=O)N[C@@H](Cc1ccc(O)cc1)C(=O)N2 | Tumor necrosis factor receptor superfamily member 9/Nectin-4 | reporter gene | HT-1376 coculture with reporter cells |  | 0.00083 µM
Nc1nc2c(ncn2[C@@H]2O[C@@H]3COP(=O)(O)O[C@H]3[C@H]2O)c(=O)[nH]1 | Cone cGMP-gated channel (Morone saxatilis, UniProt Q3I0N1+Q3I0N2) | channel current, suction electrode | Morone saxatilis cone outer segments | with: 20 µM Ca2+ | 331 µM

A few entries again:
SMILES | target | test | test system | conditions | EC50
CCCC[C@@H]1NC(=O)[C@H](Cc2ccc(O)cc2)NC(=O)[C@@H]2CCCN2C(=O)[C@H](CC(=O)O)NC(=O)[C@H](C)NC(=O)[C@H](Cc2ccccc2)NC(=O)[C@@H]2CSCCC(=O)N3CN(CN(C3)C(=O)CCSC[C@@H](C(=O)N[C@@H](C)C(N)=O)NC1=O)C(=O)CCSC[C@H](NC(C)=O)C(=O)N[C@@H](CC(C)(C)C)C(=O)N1CCC[C@H]1C(=O)N[C@@H](CCCCNC(=O)CCc1cn(CC(=O)N[C@H]3CSCCC(=O)N4CN5CN(C4)C(=O)CCSC[C@H](NC(=O)[C@@H](CC(=O)O)NC(=O)[C@H](Cc4cccc6ccccc46)NC(=O)[C@@H]4CCCN4C3=O)C(=O)N[C@@H](CCSC)C(=O)N[C@@H](CCCCNC(=N)N)C(=O)N[C@@H](CC(=O)O)C(=O)N[C@@H](Cc3c[nH]c4ccccc34)C(=O)N[C@@H](CO)C(=O)N[C@@H]([C@@H](C)O)C(=O)N3CCC[C@H]3C(=O)N3C[C@H](O)C[C@H]3C(=O)N[C@@H](Cc3c[nH]c4ccccc34)C(=O)N[C@H](C(N)=O)CSCCC5=O)nn1)C(=O)N[C@H](C)C(=O)N1CCC[C@H]1C(=O)N[C@@H](Cc1ccc(O)cc1)C(=O)N2 | Tumor necrosis factor receptor superfamily member 9/Nectin-4 | reporter gene | HT-1376 coculture with reporter cells |  | 0.00083 µM
